# Experimental data from different studies.
# A part holds a random share of what one study measured. Substitutions count along the parent as printed.

# Study 1
# Target: Interferon regulatory factor 5, full length, phosphomimetic (IRF5, Homo sapiens, UniProt Q13568-2, residues 1-514, K96S/S451D/S453D/S456D/S462D)
# Technique: protein-binding microarray
# Molecule type: double-stranded DNA, one strand shown
# Medium: in vitro
# Concentration: 250 nM
# Notes: 60-bp whole probe
# Added: salmon DNA 0.4 mg/ml
# Relative to: random background probes
# Reading: higher = stronger binding
# All sequences stand within: GCCTAGCAC … GTCTTGATTCGCTTGACGCTGCTG
Sequence,log fluorescence
ATTTTGAGGTGGAGAGATAAGTGCTAG,0.403 z-score
GTATATATAATATATATTCATGTGCTA,0.735 z-score
TTAGATCTCAGTTTCGGTTAGTGCTAG,9.82 z-score
GACGATATCGGGTTTCGAAACGTGCTA,5.09 z-score
TCAGTTCTCTTTTATTTACTGTGCTAG,1.08 z-score
ATAGGTTTCGGTATCGGTTAGTGCTAG,10.9 z-score
GACAGTTTCGGGTATCGGGACGTGCTA,9.95 z-score
TAAGATCTCAGTCTCGATTAGTGCTAG,0.87 z-score
GACGGACTGAGTATCGAGACGTGCTAG,1.3 z-score
TCAAGTTTCCCTCCCTGACTGTGCTAG,0.959 z-score
TTAGGACTGGCTATCGGTTAGTGCTAG,4.24 z-score
GACGGACTGGACTATCGGGAGGTGCTA,0.667 z-score
CACTCTCTGCTTGTATCTGGGTGCTAG,0.598 z-score
GACGGTATCGACACTGGGGACGTGCTA,1.47 z-score
GGCGAACTGGGGTTTCGAGACGTGCTA,0.865 z-score
GACGATATCGGGTATCGAGATGTGCTA,2.69 z-score
TTAGATTCCAGTTTCGATTTGTGCTAG,9.41 z-score
GACGATTTCGGTTCCGAGACGTGCTAG,6.78 z-score

# Study 2
# Target: CCNB2, cyclin fold, Cln2 fusion (human)
# Technique: yeast growth competition, sequencing
# Medium: yeast
# Notes: strong parent motif
# Relative to: not given
# Reading: higher = stronger binding
# Starting sequence: PKMYT1 docking peptide (human); SFEPRNLLSLFED; partner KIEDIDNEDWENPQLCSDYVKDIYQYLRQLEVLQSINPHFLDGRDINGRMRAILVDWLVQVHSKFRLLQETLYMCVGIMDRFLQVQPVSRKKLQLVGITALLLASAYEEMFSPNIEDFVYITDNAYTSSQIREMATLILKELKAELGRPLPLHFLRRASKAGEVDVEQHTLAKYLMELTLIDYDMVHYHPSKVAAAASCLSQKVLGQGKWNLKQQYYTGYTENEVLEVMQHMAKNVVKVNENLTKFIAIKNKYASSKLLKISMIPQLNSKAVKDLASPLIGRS
Change,normalised enrichment score
SFEPRNLDSLFED [L8D],-0.299
SFEPRNLLHLFED [S9H],1.03
SFEPRNLLPLFED [S9P],2.39
SFEIRNLLSLFED [P4I],-0.379
SFEPRQLLSLFED [N6Q],0.129
SFEPRNLLSLFEK [D13K],0.846
SFEPVNLLSLFED [R5V],1.06
SFEPRNLLSLFEC [D13C],0.809
SFEPRNLLSLFGD [E12G],-0.0101
SFEPRELLSLFED [N6E],-0.296
SFEPRNLLSRFED [L10R],0.0998
QFEPRNLLSLFED [S1Q],1.23
SFEPRNTLSLFED [L7T],-0.626
SFMPRNLLSLFED [E3M],1.17
SFEPRNLLSLFMD [E12M],0.575
SFDPRNLLSLFED [E3D],-0.0077
SFEPRNWLSLFED [L7W],-0.397
SFEPRNLLSLRED [F11R],-0.529
SFLPRNLLSLFED [E3L],1.3
SFEPRNLLSLFYD [E12Y],0.539
SFEPRNLLALFED [S9A],1.51
SFEPRNLLSLFEF [D13F],0.744
SFEPRNALSLFED [L7A],-0.468
LFEPRNLLSLFED [S1L],1.86
SFEPRNLLSGFED [L10G],-0.0987

# Study 3
# Target: ABI1, truncated, D143A, DHFR fusion (Arabidopsis thaliana)
# Technique: DHFR PCA, deep sequencing
# Medium: yeast
# Notes: methotrexate growth selection, single substitutions
# Added: (+)-ABA 0.0091 µM
# Relative to: wild-type fitted maximum
# Reading: higher = stronger binding
# Starting sequence: PYL1, truncated, DHFR fusion (Arabidopsis thaliana); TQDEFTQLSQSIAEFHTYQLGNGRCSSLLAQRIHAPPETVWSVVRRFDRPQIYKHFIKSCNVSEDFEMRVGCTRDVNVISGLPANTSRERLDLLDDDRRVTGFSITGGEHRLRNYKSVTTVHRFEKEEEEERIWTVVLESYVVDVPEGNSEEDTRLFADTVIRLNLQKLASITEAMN; partner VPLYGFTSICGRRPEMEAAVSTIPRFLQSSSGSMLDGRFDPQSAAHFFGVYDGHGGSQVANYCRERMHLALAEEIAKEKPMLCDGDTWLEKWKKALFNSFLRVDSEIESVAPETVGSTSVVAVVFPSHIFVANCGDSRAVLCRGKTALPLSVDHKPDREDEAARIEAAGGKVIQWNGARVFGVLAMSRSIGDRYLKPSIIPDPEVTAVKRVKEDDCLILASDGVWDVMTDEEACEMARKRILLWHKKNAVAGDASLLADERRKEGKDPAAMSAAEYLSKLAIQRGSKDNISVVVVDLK
Change,relative binding score [%]
A175T,12.5
L20M,29
R32I,39.4
R45L,-1.1
P50E,1.74
P37I,-1.42
D159K,-1.7
L8M,43
L91K,-4.93
E151I,37.8
M68E,-1.3
Y18Q,4.11
N114F,-5.34
Q2V,60.9
H55I,20
R111K,14.8
V161C,47.3

# Study 4
# Substance: PhoQ, residues 284 288 289 292 302 303 SACGEM
# Technique: Sort-seq
# Measured: YFP reporter
# Medium: E. coli
# Notes: PhoQ-PhoP variant library
# Added: 10 µM Mg2+
# Relative to: high Mg2+ state
# Reading: higher = stronger signaling
target,fold induction
"PhoP, residues 12 14 15 18 19 TQAML (Escherichia coli, UniProt P23836)",20.2
"PhoP, residues 12 14 15 18 19 NQCAL (Escherichia coli, UniProt P23836)",13.8
"PhoP, residues 12 14 15 18 19 LHTVL (Escherichia coli, UniProt P23836)",17.7

# Study 5
# Target: RING finger protein unkempt homolog, zinc fingers 1-6, SBP tag (UNK, Homo sapiens, UniProt Q9C0B0, residues 30-357)
# UniProt Q9C0B0, sequence (30-357, looked up): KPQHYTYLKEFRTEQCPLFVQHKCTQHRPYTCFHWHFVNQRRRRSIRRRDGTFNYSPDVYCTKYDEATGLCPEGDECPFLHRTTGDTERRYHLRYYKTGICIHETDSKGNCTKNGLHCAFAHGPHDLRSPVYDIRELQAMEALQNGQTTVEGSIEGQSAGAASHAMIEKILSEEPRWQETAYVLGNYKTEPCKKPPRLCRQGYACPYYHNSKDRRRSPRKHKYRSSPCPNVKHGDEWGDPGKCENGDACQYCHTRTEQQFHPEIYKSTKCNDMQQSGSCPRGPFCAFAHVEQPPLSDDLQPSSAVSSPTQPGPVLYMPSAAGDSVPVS
# Technique: RNA Bind-n-Seq
# Molecule type: RNA
# Medium: in vitro
# Concentration: 100 nM
# Notes: RNA with constant flanks, vertebrate orthologous sites, ends assumed
# Relative to: input RNA pool
# Reading: higher = stronger binding
Sequence,bound/input enrichment [ratio]
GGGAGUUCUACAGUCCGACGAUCAAACUUAUAUUGUGGCAUAUAGGCAACAUGGAAGUAGACCAGCUCUGCUGAUUGGAAAUUUAGAUUUUUUAAUUAUGUACUGGGGACAGGUUUUUGUCGCUUUACAUUGCUUCCUAGUUUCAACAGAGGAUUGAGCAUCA,3.35
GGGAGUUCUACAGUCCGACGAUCAGCAACCCAAGGAUUCAGGACUGGUUUUACAAAUAUACCAAGCAGAUACGGAACUAACAAUAGAAUUGGACAACCAAGACCAUGAUGUACUGUAAUUUAAUUUAUUUUUAUGAAGAAUAUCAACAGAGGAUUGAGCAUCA,0.646
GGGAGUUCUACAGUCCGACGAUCUGUGCUAAUAUUCUUCUAGGGAAGAGAUGAAUUGGGGAAAACUGUCUCCGUUUUAUAGAUUAGUUUGUUUCUAAAUUAUGACCAAAAAAUAUUUUGCUAUUUCUUUCUUUAUAUAUGGACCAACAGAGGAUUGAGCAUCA,0.895
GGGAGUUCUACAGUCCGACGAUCAGUAUCCCAGUUGUACUGUGUUGGGUUGGCAUUGUACAGAAAUUAACAGCCAUAUUGGUCUAGAAAUGUUCAACAUACUUUUUUCCAUUUGUACAGGGGUAACGCACUGUAUUAAAUAUACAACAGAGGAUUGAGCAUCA,0.597
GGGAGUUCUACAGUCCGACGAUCCCCUCUGAACCCCAUAUCUUCCGUCUCAUAGUGCAGAAGUAGUCUUUUCAAUUAUAUUAUUAGCGGACUUGUUUUAAUUUUAGGGAAACCUUCAGUACAGAUACUGUGAGCUUACGUGGACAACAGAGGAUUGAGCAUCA,3.32
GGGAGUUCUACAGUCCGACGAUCCUUCCUCCAACUUCAGUUUUUCAGGUUGUAGCUGAUCCAUCUUUUAUUCUUCCUCUCCUCUCACUGUUGCUUUCCUUUCCUUUCUGUCUGCCCAACAUCAGACACAUGCAUUCAUCCCCUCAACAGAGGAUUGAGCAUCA,1.1
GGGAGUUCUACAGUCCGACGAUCAUAAUCACUCUAAUUGUAAUCUGAAUAAAGUGUAACAUUGUGUAGCCUUUUUGUAUAAACUAGACAAAAUAGAAUGGUCCAAUUAGUUUCCUUUUUAAUAUGCUUAAAAUAAGCAGGUGACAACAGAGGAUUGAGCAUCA,1.63
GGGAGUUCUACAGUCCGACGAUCUUCUCUUAGCGAUAGUAUUCCAUCCGUAGCAGAUUCUCACUCGAGUCAUUUUUCUGAGUUCAGUUGCUCAGAUAUGGAAAGUAUGAAAACUUCCUGUAGCCACGGUUCCAGCGACUAUCACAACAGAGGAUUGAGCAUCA,1.53
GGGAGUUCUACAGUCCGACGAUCCUCCCUCCCAGGACUGAGCAGUGGGGCCUGGGCCCACUGGCCACAUCAGCCAGGCCAUUUUAGCUCUUUUUUUUUUUUAAACAGUGCCCUUGUUAUCCUGUAUAUAAGUGGAGAUUUGGACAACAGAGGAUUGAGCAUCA,1.94
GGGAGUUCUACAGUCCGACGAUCUUUUUAAAGUUUUUUUUAAUUUAAUUUUUUCCUUUUGGGGAUACAGUUUGCUCUACCAAAUAGUGAUCGUAACAAAUUGAUCUGUUUUGGAUGUUGCUAUAGUGACAUGCAGUUAUAUAUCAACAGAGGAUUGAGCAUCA,1.38
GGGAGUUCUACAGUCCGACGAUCAGAAAAUUUUAAUCAGGAAUCAGAAGGUAGAAGUACAGGACCGUGGUUAUCUUCCUCACUUAGAAAUAGAUGCACACCUUUGUUCUCUAGAAGGAGGCGAGAGGGAAGAGAUGAAUCUUCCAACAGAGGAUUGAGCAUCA,1.3

# Study 6
# Target: CEP164, C-terminal peptide (human)
# Technique: DHFR complementation, deep sequencing
# Medium: yeast
# Notes: single substitutions, model-inferred values
# Relative to: wild type
# Reading: higher = weaker binding
# Starting sequence: PDZK1, PDZ domain 2 (human); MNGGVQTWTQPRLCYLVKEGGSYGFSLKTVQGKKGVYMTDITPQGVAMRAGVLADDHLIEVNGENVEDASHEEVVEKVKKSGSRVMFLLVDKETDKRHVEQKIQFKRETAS; partner HNRVKVYRF
Change,binding free energy change [kcal/mol]
L53D,0.93
S70D,-0.142
K77I,0.0418
G35M,0.691
Y15M,0.183
A110M,-0.116
E93P,0.0936
L58D,0.221
S22P,0.118
V99H,-0.159
V52R,2.15
V99D,-0.0471
V74T,0.0477
L88R,-0.153
K34E,0.192
L53Q,0.00566
Y15C,-0.029

# Mixed results
Substance,partner,test,conditions,measurement,result
"HNRNPA1 (Homo sapiens, UniProt P09651)","SFPQ (Homo sapiens, UniProt P23246)",cross-linking MS,hits only,interaction screen,cross-linked

# Repeated from above (mixed results):
Substance,partner,test,conditions,measurement,result
"HNRNPA1 (Homo sapiens, UniProt P09651)","SFPQ (Homo sapiens, UniProt P23246)",cross-linking MS,hits only,interaction screen,cross-linked
